Published values pooled from the literature.
Parts stem from different laboratories: compare values within a part only. Changes are numbered by the printed parent chain.

Block 1
Target: CEBPE, bZIP domain (human)
Technique: DHFR protein complementation
Sample: yeast
Notes: single substitutions, most at no-binding floor
Baseline: wild-type JUN-FOS pair
Reading: higher = stronger binding
Starting sequence: JUN, bZIP domain (human); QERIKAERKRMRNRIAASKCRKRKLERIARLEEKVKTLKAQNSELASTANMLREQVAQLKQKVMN; partner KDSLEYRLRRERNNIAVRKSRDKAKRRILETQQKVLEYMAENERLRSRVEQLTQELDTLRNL
`L45M` has a binding fitness of -1.42 natural log.
With `L45G` the binding fitness was -1.48 natural log.
The binding fitness of `N42F` is reported as -1.53 natural log.
`A57L` has a binding fitness of -1.18 natural log.
`R53Q` gave a binding fitness of -0.924 natural log.

Block 2
Target: CCND2, cyclin fold, Cln2 fusion (human)
Technique: yeast growth competition, sequencing
Sample: yeast
Notes: weak parent motif
Baseline: not given
Reading: higher = stronger binding
Starting sequence: CDC6 docking peptide (human); TLKGRRLVFDNQL
For `TLAGRRLVFDNQL [K3A]`, “normalised enrichment score” read 0.0553.
`TLKIRRLVFDNQL [G4I]`: “normalised enrichment score” 0.438.
`KLKGRRLVFDNQL [T1K]` — result for “normalised enrichment score”: 0.342.
`TLKGRSLVFDNQL [R6S]`: “normalised enrichment score” -0.148.
`TDKGRRLVFDNQL [L2D]` — result for “normalised enrichment score”: -0.0154.
`TLKGRRLVFFNQL [D10F]`: “normalised enrichment score” 0.221.
`TLKGRRLVFDNRL [Q12R]` — result for “normalised enrichment score”: -0.0518.

Block 3
Target: RNA binding protein fox-1 homolog 2, RRM domain, GST-SBP tag (RBFOX2, Homo sapiens, UniProt O43251-10, residues 100-194)
Technique: RNA Bind-n-Seq
Form: RNA
Sample: in vitro
Tested at: 365 nM
Notes: natural RNA segment, single round, ends assumed
Baseline: no-protein control
Reading: higher = stronger binding
Shared flanks, not repeated: GGGAGUUCUACAGUCCGACGAUC … UGGAAUUCUCGGGUGCCAA
Target sequence (chain): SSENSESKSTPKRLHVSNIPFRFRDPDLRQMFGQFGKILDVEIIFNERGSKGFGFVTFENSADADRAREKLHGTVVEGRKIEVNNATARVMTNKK
`UUUGGUAUUAAUUUGACUGUGCAUGACAGCGGCAAUCUUUUCUUUGGUCAAAGUUUUCUGUUUAUUUUGCUUGUCAUAUUCGAUGUACUUUAAGGUGUCUUUAUGAAGUU` — result for “RBNS enrichment (R)”: 3.15.
`UAUUUUAAACUUGUGUAUCACAACUUGGUUGAUAUGCCUAAAAUGAUCUACUGGCUUUUGCUUAUGAUUAAAAAACCUCAAAUCUAUCUUCUACAUUUUAAAAGGAAGAA`: “RBNS enrichment (R)” 0.329.
Under “RBNS enrichment (R)”, `UUAUCACCAAUGUAUAUCUCCAUUUAUUCAAUAACUUACUGGGGUAAAAUAACAGCAAUAAACCUAACCUUUUAACAGGGUCUAACAUGAGAGUUGGAGUCAAAGCCAUU` is recorded as 0.692.
For `GCUUCGCUAAUAUUUUAAACAGUCCUGUAAAAACCCACCAAGGACUUUUUGUAUAGAAAGCACUACCCUAAGCCAUGAGGAUCUCCAUGCUUUGCUAACCAAGAUAACUG`, “RBNS enrichment (R)” read 0.518.
`UUUCUCUUUGACCUAGAGGUUUCACAUCAUAGCAAGGAGGGAAAAGUCUCCCCAUCUCCUUACAACUGUGUGCUAAGUAAGUAACUUGGCCAAGGGUAGUUUUCAGCUCA` — result for “RBNS enrichment (R)”: 0.464.
`AACAUGUUUCCAGCAAGUAGAUGCCCCUGUGUGUGUUUUCCCUUGCCUUGUUUCCUGCCUUAUAUCUUGUAUUUCGACUUAUUACAGAGUUGAGGGUUCUUGCUUAAUUU`: “RBNS enrichment (R)” 0.948.
`GAUUUUGAAAGUAUCUGAGAUAUACAAAUCUCCCUGUAGGAAAUGUGAAAGAAAAGCACAACAAAACUAGGGUUUUUUGUUCAUUUGCUUGCUUUUAUGAUUUUUUUUGG` — result for “RBNS enrichment (R)”: 0.69.
For `GGGGACGGGGUCUGUGAGAGUCAAUUCAGGGGAAAGAUACAAGAUUGAUUUGUAAAACCCUUGAAAUGUAGAUUUCUUGUAGAUGUAUCCUUCACGUUGUAAAUAUGUUU`, “RBNS enrichment (R)” read 0.59.
`AGAACUGCUGAGCGAGCUACUGGAAAGCCGUUUACACCAGACAGGCAGAGAGCAGAGAGCAGCCACUGUCACUAUCUUGCCAUCUCAUUCAGGGUCCUCUGAAAGUUACC`: “RBNS enrichment (R)” 0.378.
Under “RBNS enrichment (R)”, `CAAUUAUGUGCUGCCCAACAACUAAAUUUGUAAUUUGUUUUCUCUACUUUGAGCAGGGUCUGAAUUUUUUCAUUUAUUUUCUUUUUGCCAGCAGACAGACUUGGGUCUAU` is recorded as 0.398.
Under “RBNS enrichment (R)”, `GGGGCCCCCCACGCCGAGGUUCCUGGAGGCGGGAGGUGCCGCGAUCUAAGUGCCUAGCCCUUCCACCCACCCGCCGUCCACCUCGUCCAUCGGGGACACAGAGUGGCCAG` is recorded as 0.196.

Other studies, line by line
`STXBP5 (Homo sapiens, UniProt Q5T5C0)`: interaction screen “cross-linked” (AP2M1 (Homo sapiens, UniProt Q96CW1); cross-linking MS; hits only).
With `PhoQ, residues 284 288 289 292 302 303 ALVSVA` the fold induction was 4.33 (PhoP, residues 12 14 15 18 19 AWHSL (Escherichia coli, UniProt P23836); Sort-seq, item: YFP reporter; E. coli; PhoQ-PhoP variant library, with: 10 µM Mg2+; baseline: high Mg2+ state, higher = stronger signaling).
`REV3L (Homo sapiens, UniProt O60673)`: interaction screen “cross-linked” (H1-4 (Homo sapiens, UniProt P10412); cross-linking MS; hits only).

For quick reference, copied from above (block 2):
For `TLAGRRLVFDNQL [K3A]`, “normalised enrichment score” read 0.0553.
`TLKGRRLVFFNQL [D10F]`: “normalised enrichment score” 0.221.
